Results pooled from the literature.
Each line is one published result; not all experiments were run side by side.

COc1ccc2c(c1)[C@]13CCCC[C@@H]1[C@H](C2)N(C)CC3  subjects with serious treatment-related TEAE (human; oral, dose not given): 0%
CNC(=O)n1ccc2cc(Oc3ccnc(NC(=O)c4ccc(C5CCN(CCO)CC5)cc4)c3)c(OCCOC)cc21  subjects, with TEAEs, treatment-related (healthy human; oral, 35 mg): 14.3%
C=C(C)[C@@H]1CCC(C)=C[C@H]1c1c(O)cc(CCCCC)cc1O  subjects with Chromaturia (human; 750 mg, trial 17074, with: rifampicin 600 mg): 0%
CC(=O)N(C)[C@H]1CCN(C(=O)c2cnc3c(c2)C[C@](C)(c2ccc(F)cc2)N3)C1  subjects with AESIs (healthy male human; oral, 60 mg once daily, multiple rising dose, with: midazolam): 0%
Cc1ncc2n1-c1ccc(Cl)cc1C(c1ccccc1F)=NC2  subjects with TEAEs (refers to: skin and subcutaneous disorders (SOC); humans; oral, dose not given): 0%
C[C@]1(CO)Cc2ncn(-c3ccc(C#N)c(Cl)c3)c2C(=O)O1  subjects with drug-related TEAEs (investigator-assessed; human; 10 mg multiple doses, fasted): 11.1%
NCCCC[C@@H]1NC(=O)[C@@H](Cc2c[nH]c3ccccc23)NC(=O)[C@H](c2ccccc2)NC(=O)[C@@H]2C[C@@H](OC(=O)NCCN)CN2C(=O)[C@H](Cc2ccccc2)NC(=O)[C@H](Cc2ccc(OCc3ccccc3)cc2)NC1=O  subjects with upper abdominal pain (healthy human volunteers; 600 µg twice daily): 3%
CC[C@H]1[C@@H](O)[C@@H]2[C@H](CC[C@]3(C)[C@@H]([C@H](C)CCNC(=O)NS(=O)(=O)c4ccc(C(C)(C)C)cc4)CC[C@@H]23)[C@@]2(C)CC[C@@H](O)C[C@@H]12  subjects with TEAEs (human; concentration not given, study, with: fluconazole): 50%
Cc1ncc2n1-c1ccc(Cl)cc1C(c1ccccc1F)=NC2  subjects with terminating TEAE (human; oral, dose not given): 0%
